Measurements collected from several papers.
Parts stem from different laboratories: compare values within a part only. Substitutions count along the parent as printed.

Sample 1 — method: protein binding microarray; form: double-stranded DNA, one strand shown; sample: in vitro; concentration: not given; relative to: not given; direction: higher = stronger binding
Target: Histone acetyltransferase KAT6A, winged helix 2, GST fusion (KAT6A, Homo sapiens, UniProt Q92794, residues 85-181)
Setting: 8-mer, flanks averaged, mean of 2 arrays, mostly near background
Target sequence (chain): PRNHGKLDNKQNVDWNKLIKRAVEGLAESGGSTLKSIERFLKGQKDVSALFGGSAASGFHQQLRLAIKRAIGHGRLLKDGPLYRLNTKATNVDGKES
Sequence	E-score
ACGCCCAT	0.0928
CCCCTCGC	0.152
ACAACCAT	0.0152
TGCCGTAA	-0.0377
GTGTTCAA	0.0327
GAGTTGGA	-0.0423
ACAGGGAC	0.141
AGATGACG	-0.0432
AGGGGGGC	-0.00449
AGCTAGGC	-0.0159
CAAGGGGC	0.192
CTTATCGA	0.00718
TGCAGACA	0.0559
TAAGTACA	-0.212
AAAGTCAT	-0.141
AAGGCAGG	-0.00999
CCTTGGCG	0.0132
TTCGTAAA	-0.0507
ACCGGTAG	-0.154
TATATATA	0.188
AATAAGAA	0.162
AGCGGGAT	0.0747
TCCCTAGA	0.0458
CGAACGAG	-0.142
AACTTTTC	-0.105

Sample 2 — target: CCND2, cyclin fold, Cln2 fusion (human); method: yeast growth competition, sequencing; sample: yeast; setting: weak parent motif; relative to: not given; direction: higher = stronger binding
Starting sequence: WEE1 docking peptide (human); HKTFRKLRLFDTP; partner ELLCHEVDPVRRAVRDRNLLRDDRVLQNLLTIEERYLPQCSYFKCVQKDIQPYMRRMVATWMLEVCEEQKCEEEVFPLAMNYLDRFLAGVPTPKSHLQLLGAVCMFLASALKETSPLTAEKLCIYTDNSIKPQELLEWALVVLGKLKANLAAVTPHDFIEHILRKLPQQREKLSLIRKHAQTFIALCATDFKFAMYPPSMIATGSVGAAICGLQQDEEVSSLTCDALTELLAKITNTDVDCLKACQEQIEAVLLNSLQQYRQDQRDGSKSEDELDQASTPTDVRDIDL
Substitution	normalised enrichment score
F10C	0.0765
T12F	0.53
R5F	-0.116
P13C	0.561
H1D	0.321
F10G	-0.35
T12E	0.269
F10T	0.319
T12Q	-0.0476
R5M	0.295
P13G	-0.111
L7F	0.0245
F10S	-0.128
K2I	0.0733
F4I	0.00713
L9C	0.122
L7E	0.17
R5S	-0.454
L7W	-0.169
H1M	0.0431
D11L	0.57
F4L	-0.0435
P13S	0.274
F4K	-0.0277
F4R	0.439

Sample 3 — method: RNA Bind-n-Seq; form: RNA; sample: in vitro; concentration: 200 nM; setting: whole 134-nt RNA, ends assumed; added: 150 mM KCl; relative to: input library; direction: higher = stronger binding
Target: Fragile X messenger ribonucleoprotein 1, C-terminal low-complexity region (Fmr1, Mus musculus, UniProt P35922)
Sequence	log2 enrichment
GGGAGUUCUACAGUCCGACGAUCUCCUGUGCUACACAUCGUAUGUACCGAAUCGGGAAAAAAGGAAAAAAGGGAAAAAAGGGAAAGUAUUAUGUUACGCCGUUCGGAUCUGCAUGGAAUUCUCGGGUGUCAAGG	-0.17
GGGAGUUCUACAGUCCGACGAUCCUGUGCUACACAUCGUAUGUACCGAAUCGGAAAAAAAGGGAAAAAAAGGGGAAAAAAAGGGAAAGUAUUAUGUUACGCCGUUCGGAUCUGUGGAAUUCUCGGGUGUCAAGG	-0.878
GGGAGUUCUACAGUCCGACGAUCACCAUGCAGGUGGGCAUCUUUGGGAAGUGGGGCAAGGGGGCGAUAGGGAGGGGGGUAACACUUUGGGAACAGGUGGUCCCAGGUCGUUUCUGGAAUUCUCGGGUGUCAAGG	0.783
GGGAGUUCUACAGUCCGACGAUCAAGUCCUGUGCUACACAUCGUAUGUACCGAAUCGGGCCCGGGGCCCGGGGCCCGGGGAAAGUAUUAUGUUACGCCGUUCGGAUCUGCACUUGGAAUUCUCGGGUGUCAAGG	-0.646
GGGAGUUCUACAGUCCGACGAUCUAACUUUAGAGGAGGAUCUGAUGGAUAUGGCAGUGGACGUGGAUUUGGGGAUGGCCAUAAUGGGUAUGGAGGAGGACCUGGAGGUGGCAAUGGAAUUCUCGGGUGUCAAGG	0.392
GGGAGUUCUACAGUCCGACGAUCUCAACAAGAGAUGUUCAAGAACUUUUGACACAAUAUACCAAGUUUGCACAGAUGGUAAAAAAGAUGGGAGGUAUCAAAGGACUUUUCAAAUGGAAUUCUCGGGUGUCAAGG	0.162
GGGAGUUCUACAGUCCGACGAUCUAACUUUAGAGGAGGAUCUGAUGGAUAUGGCAGUGGACGUGGAAUUGGGGAUGGCUAUAAUGGGUAUGGAGGAGGACCUGGAGGUGGCAAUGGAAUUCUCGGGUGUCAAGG	0.286
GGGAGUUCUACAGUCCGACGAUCGUCCUGUGCUACACAUCGUAUGUACCGAAUCGGGGUUUUUGGGUUUUUGGGUUUUUGGAAAGUAUUAUGUUACGCCGUUCGGAUCUGCACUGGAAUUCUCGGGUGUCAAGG	-0.0697
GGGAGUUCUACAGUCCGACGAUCCCUGUGCUACACAUCGUAUGUACCGAAUCGGGUUUUUUUGGUUUUUUUGGGUUUUUUUGGGAAAGUAUUAUGUUACGCCGUUCGGAUCUGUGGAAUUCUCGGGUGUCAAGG	-0.874

Sample 4 — method: RNA Bind-n-Seq; form: RNA; sample: in vitro; concentration: not given; relative to: input RNA pool; direction: higher = stronger binding
Target: RING finger protein unkempt homolog, zinc fingers 1-6, GST-SBP tag (UNK, Homo sapiens, UniProt Q9C0B0, residues 30-357)
Setting: RNA with constant flanks, human-mouse chimeric sites, ends assumed
Residues (chain): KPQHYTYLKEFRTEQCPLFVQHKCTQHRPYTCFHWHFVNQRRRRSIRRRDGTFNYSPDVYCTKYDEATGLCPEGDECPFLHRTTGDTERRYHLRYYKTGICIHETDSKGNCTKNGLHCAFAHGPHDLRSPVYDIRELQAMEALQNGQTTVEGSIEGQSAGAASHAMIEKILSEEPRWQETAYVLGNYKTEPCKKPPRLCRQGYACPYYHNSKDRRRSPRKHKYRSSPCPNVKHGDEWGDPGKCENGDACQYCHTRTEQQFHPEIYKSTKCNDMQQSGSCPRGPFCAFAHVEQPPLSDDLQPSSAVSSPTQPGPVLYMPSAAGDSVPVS
Sequence	bound/input enrichment
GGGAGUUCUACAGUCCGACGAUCCAACCUCAGAGCCCAGACUUCCUGGAUAUUACCAACCCUAAAGCGGUAUUAGAAAAUGCAUUGAGAAACUUCGCCUGUCUGACGACUGGGGAUGUGAUUGCUAUCAACUACAAUGAGAAGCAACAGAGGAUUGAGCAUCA	0.345 ratio
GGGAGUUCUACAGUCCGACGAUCCACAGAGGAGACCUCCUGUUCCUCACGAAUUUCCGGGAGGACCCCAUCAGAGCUGGUGAAAUAGUUGUUUUUAAAGUUGAAGGAAGAGACAUUCCGAUAGUUCACAGAGUAAUCAAGGUUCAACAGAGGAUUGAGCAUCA	7.57 ratio
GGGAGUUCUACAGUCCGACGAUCCUGUGUGUGCUGAAUAAAUGGCUUGUAAGAACUGUCCUCCAAGCUGUAACCCAUGCUGUUAUUAUAGUUGCUGCAAAAUGUUCUUCCUGAUAUUGAUGUUUGUUUACAACUGAAGGUCUCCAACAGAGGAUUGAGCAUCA	0.247 ratio
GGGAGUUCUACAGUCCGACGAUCCGGAGCCCUCCUCUCCCACAGGCCCAAGAUGUGACCCACCAGUGCCUUUUGUCUUCCCGUUAGCUUUGUCAAUCACGCCUGUCCUCUCACGCCCACACCAAGUGCCCAAAGUGGGGAGGGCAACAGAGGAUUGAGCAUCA	9.2 ratio
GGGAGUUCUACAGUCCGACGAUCUGUGAACUGUCUCUUGAGAUCUAAAAACAAGAUGACUUUUCCUGGCACAUAUUCCAAAGCAAAGACUUUGUUACCUGCUGCUUAUUGUCUAAUUUACAGGGAUAUUUAAUUUUGUCAGGUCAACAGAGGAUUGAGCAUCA	0.207 ratio
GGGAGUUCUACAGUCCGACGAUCGUCAACAGCUGCCUCAACCCCAUCCUCUACGCCUUCCUGGAUGAGAACUUCAAGGCCUGCUUCCGCAAGUUCUGCUGUGCAUCUGCCCUGCGCCGGGAGAUGCAGGUUUCUGAUCGUGUGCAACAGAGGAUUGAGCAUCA	0.222 ratio
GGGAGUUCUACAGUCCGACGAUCCACAGAGCAGCACCUACCCCCUCCUCCUUUCCACACCUGCAAACUCUUUUACUUGGGCUGAAUAUUUAGUGUAAUUAACAUCGCAGCUUGAGGGCUCCUGUGGCAAAUUCCCGGAUUAAACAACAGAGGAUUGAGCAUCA	1.41 ratio
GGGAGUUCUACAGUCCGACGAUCGUGCCCUUCUCGCUGCUCCUGCGGGGCAGCUGGGAACCAUUCCGGGACGACUGGUACGCACACAGCCGCCUCUUCGAUCAAGCUUUCGGGGUGCCCCGGUUGCCCGAUGAGUGGUCGCAGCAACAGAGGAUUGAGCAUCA	0.0755 ratio

A few entries again (sample 1):
Sequence	E-score
AGCGGGAT	0.0747
ACCGGTAG	-0.154
TGCCGTAA	-0.0377
CCCCTCGC	0.152
